# Assay results from different studies.
# Parts stem from different laboratories: compare values within a part only.
# Chain of UniProt Q8TF76 (whole entry, looked up): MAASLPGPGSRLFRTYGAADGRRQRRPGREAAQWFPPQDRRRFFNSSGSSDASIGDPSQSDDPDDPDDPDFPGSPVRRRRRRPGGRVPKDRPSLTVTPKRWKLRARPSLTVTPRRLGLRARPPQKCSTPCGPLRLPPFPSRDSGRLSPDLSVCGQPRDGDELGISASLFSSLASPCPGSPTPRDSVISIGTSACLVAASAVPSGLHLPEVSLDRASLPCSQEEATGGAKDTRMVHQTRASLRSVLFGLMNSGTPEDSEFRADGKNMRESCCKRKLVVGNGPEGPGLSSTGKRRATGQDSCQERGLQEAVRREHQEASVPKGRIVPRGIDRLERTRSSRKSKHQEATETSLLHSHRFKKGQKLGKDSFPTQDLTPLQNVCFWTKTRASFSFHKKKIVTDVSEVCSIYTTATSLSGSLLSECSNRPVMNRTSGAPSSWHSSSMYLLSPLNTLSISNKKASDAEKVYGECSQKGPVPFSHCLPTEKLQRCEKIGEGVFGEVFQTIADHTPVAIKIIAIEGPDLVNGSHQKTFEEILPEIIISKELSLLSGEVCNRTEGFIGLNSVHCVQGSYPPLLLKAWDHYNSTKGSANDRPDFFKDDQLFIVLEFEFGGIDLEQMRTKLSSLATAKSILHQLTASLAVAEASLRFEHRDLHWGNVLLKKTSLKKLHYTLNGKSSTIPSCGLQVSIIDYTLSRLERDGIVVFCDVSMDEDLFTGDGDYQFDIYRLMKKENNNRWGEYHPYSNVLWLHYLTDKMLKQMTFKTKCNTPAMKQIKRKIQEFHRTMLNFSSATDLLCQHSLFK
# Chain of UniProt O43683 (whole entry, looked up): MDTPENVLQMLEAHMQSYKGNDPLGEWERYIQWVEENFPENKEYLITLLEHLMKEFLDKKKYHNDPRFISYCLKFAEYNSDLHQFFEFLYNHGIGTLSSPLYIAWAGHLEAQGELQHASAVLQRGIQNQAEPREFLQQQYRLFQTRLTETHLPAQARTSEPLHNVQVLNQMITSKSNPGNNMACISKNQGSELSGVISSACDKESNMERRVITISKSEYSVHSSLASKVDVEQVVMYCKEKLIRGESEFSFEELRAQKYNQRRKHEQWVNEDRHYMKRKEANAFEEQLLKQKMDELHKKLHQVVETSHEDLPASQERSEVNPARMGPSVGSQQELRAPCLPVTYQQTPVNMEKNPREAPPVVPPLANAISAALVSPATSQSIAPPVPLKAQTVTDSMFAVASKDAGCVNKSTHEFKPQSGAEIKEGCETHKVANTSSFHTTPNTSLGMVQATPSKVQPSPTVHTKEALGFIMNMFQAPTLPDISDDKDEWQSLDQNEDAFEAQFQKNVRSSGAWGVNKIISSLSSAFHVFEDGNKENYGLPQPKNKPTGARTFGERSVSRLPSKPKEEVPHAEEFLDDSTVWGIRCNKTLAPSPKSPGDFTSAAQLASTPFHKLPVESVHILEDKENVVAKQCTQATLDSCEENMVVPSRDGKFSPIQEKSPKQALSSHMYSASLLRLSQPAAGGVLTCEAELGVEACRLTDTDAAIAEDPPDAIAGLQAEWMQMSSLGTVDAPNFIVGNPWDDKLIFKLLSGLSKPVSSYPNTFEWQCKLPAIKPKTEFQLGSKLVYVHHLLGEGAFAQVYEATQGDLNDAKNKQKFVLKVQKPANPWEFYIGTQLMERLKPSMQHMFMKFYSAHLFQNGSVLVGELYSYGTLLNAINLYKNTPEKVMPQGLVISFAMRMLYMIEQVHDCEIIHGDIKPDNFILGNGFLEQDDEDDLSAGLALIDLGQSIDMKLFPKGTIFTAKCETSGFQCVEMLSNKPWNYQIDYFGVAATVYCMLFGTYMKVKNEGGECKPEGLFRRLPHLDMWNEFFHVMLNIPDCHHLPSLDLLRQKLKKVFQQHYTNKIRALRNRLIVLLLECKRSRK
# Chain of UniProt P78356 (whole entry, looked up): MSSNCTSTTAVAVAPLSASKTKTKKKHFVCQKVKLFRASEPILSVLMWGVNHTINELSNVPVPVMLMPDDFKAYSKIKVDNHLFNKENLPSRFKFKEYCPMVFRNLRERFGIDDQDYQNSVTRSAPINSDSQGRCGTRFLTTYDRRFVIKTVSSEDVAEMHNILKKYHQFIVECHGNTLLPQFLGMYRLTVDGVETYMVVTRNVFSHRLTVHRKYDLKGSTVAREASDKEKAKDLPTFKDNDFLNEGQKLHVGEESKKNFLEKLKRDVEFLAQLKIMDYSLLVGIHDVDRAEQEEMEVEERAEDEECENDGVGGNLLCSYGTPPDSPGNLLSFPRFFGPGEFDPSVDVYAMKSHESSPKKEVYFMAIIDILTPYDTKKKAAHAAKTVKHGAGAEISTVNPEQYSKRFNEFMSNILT

# Block 1
# Target: Homeodomain-interacting protein kinase 1 (HIPK1, Homo sapiens, UniProt Q86Z02)
# Chain of UniProt Q86Z02 (whole entry, looked up): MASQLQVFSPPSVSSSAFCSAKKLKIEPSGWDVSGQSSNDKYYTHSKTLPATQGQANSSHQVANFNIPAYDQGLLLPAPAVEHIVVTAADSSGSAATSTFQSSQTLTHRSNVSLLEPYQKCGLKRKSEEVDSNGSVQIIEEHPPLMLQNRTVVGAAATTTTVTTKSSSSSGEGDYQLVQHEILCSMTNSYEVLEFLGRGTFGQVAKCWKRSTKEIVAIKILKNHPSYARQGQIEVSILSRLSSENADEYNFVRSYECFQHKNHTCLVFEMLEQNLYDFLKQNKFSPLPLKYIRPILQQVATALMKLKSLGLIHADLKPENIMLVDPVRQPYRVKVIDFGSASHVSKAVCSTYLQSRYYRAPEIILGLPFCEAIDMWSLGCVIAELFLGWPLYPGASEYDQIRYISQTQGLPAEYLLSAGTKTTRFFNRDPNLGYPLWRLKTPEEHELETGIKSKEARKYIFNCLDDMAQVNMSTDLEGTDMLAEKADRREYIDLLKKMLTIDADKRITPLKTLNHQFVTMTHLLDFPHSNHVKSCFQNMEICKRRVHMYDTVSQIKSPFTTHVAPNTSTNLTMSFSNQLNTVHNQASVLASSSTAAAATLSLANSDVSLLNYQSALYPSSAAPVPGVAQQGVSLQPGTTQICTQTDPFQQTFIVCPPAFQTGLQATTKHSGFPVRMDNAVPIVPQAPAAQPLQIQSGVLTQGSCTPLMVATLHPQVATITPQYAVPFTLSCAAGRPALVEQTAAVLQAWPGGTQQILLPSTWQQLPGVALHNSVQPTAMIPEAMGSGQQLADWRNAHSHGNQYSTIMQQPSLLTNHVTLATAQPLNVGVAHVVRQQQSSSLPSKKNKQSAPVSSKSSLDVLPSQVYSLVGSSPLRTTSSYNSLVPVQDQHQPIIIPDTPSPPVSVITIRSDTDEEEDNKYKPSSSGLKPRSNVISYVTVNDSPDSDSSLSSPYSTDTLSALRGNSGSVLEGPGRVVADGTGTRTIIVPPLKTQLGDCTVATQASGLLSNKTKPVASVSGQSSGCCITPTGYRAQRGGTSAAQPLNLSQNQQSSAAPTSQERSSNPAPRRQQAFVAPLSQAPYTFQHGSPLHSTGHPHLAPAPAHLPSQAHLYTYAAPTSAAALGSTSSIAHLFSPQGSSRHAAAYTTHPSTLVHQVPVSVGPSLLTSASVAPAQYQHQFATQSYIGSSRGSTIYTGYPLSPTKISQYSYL
# Read-out: enzyme activity
# Action: inhibitor
# Concentration: 0.5 µM
# Baseline: control
SMILES,remaining activity
Fc1ccc(-c2nc3n(c2-c2ccncc2)CCS3)cc1,108%
COc1ccc(S(=O)(=O)N(CCO)c2ccccc2CN(C)CC=Cc2ccc(Cl)cc2)cc1,106%
CCc1[nH]c(-c2ccc(OC)cc2)nc1-c1ccncc1,97.7%
CSc1nc(-c2ccnc(N[C@@H](C)c3ccccc3)c2)c(-c2ccc(F)cc2)[nH]1 (racemic),110%
Nc1nccc(-c2c(-c3ccc(F)cc3)ncn2C2CCNCC2)n1,101%
CC[n+]1c(/C=C/N(C)c2ccccc2)n(-c2ccccc2)c2ccc(-c3nc4ccccc4s3)cc21,99.5%
Oc1ccc(Nc2nc(-c3ccc(Cl)cc3)cs2)cc1,100%
Cc1cc(Nc2nc(-c3ccccc3)nc3ccccc23)n[nH]1,96.3%
CC#CC(=O)Nc1cc2c(Nc3ccc(F)c(Cl)c3)ncnc2cn1,108%
Nc1nc(Nc2ccc(S(N)(=O)=O)cc2)nn1C(=O)c1c(F)cccc1F,106%
COc1cc(Nc2c(C#N)cnc3cc(OCCCN4CCN(C)CC4)c(OC)cc23)c(Cl)cc1Cl,96.3%

# Block 2
# Target: Calcium/calmodulin-dependent protein kinase type II subunit alpha (CAMK2A, Homo sapiens, UniProt Q9UQM7)
# Chain of UniProt Q9UQM7 (whole entry, looked up): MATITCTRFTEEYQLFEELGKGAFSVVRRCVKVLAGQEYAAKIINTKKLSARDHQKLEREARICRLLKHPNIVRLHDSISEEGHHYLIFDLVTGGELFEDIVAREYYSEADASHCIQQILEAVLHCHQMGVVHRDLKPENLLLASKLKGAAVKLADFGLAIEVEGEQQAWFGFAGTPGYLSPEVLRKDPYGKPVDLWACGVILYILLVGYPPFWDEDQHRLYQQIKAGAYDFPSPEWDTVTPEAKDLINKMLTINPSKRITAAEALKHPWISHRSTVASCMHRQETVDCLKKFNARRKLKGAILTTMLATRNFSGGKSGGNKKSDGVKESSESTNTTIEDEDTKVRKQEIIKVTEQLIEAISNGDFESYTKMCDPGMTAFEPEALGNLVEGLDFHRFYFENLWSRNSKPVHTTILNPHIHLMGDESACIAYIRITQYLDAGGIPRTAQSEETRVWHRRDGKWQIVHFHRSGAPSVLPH
# Read-out: enzyme activity
# Action: inhibitor
# Concentration: 10 µM
SMILES,inhibition [%]
CCN(CC)C(=O)c1ccc(O)c(OC)c1,-5
COc1ccc(CCc2cc(OC)c(OC)c(OC)c2)cc1O,29
CN1C(=O)CC(c2ccccc2)C1=O (centres unmarked),1
O=C(O)c1ccc(NC(=O)[C@H](Cc2ccc(O)cc2)NC(=O)c2ccccc2)cc1,-3
O=C1C[C@@H](c2ccc(O[C@@H]3O[C@H](CO)[C@@H](O)[C@H](O)[C@H]3O)cc2)Oc2cc(O)ccc21,-26
O=C(/C=C/c1ccc(O)c(O)c1)OC1(C(=O)O)C[C@@H](O)C(O)[C@H](O)C1 (some centres unmarked),34
COC(=O)C1=CO[C@@H](O)[C@@H]2[C@@H](C)[C@@H](O)C[C@H]12,-25
C[N+]1(C)[C@@H]2CC[C@H]1C[C@@H](OC(=O)C(O)c1ccccc1)C2 (some centres unmarked),-10
NC(=O)NO,-12
CCCCN(CCCC)C(=O)CN1C[C@H](c2ccc3c(c2)OCO3)[C@@H](C(=O)O)[C@@H]1c1ccc(OC)cc1,-13
CC[C@@H]1[C@H]2CCCCN3[C@H]2[C@H](C[C@H]3[C@@H]2C[C@H](C)C(=O)O2)[C@@H]2[C@H]1OC(=O)[C@H]2C,0
OCC(O)c1ccc(O)c(O)c1 (centres unmarked),-43
CN[C@@H]1[C@H](O[C@H]2[C@H](O[C@H]3[C@H](O)[C@@H](O)[C@H](N=C(N)N)[C@@H](O)[C@@H]3N=C(N)N)O[C@@H](C)[C@]2(O)C=O)O[C@@H](CO)[C@H](O)[C@H]1O,5
CC1=C2C(=O)O[C@@H](c3ccoc3)[C@]2(C)CCC1,-4
C[C@H]1CC[C@]2(C(=O)O)CC[C@]3(C)C(=CC[C@@H]4[C@@]5(C)CC[C@H](O[C@@H]6OC[C@@H](O)[C@H](O)[C@H]6O[C@@H]6O[C@H](CO)[C@@H](O)[C@H](O)[C@H]6O)C(C)(C)[C@@H]5CC[C@]43C)[C@@H]2[C@]1(C)O,-24
c1ccc2c(Cc3c[nH]c4ccccc34)c[nH]c2c1,26
CCCCCCCC/C=C\CCCCCCCC(=O)OC,3
COc1c(O)cc2c(c1O)C(=O)c1c(cc(C)c(O)c1OC)C2=O,-73
N=c1ccn2c(n1)O[C@H]1[C@H](O)[C@@H](CO)O[C@H]12,14
O=C(O)C1=CO[C@@H](O[C@@H]2O[C@H](CO)[C@@H](O)[C@H](O)[C@H]2O)[C@@H]2C(CO)=CC[C@H]12,-22

# Block 3
# SMILES: CS(=O)(=O)c1cc(C2(NC(=O)c3cncc4c3cnn4-c3ccc(F)cc3)CC2)ccn1
# Read-out: cell-free assay
# Method: competition with immobilised ligand
# Concentration: 1 µM
target,remaining binding [%]
"Receptor-type tyrosine-protein kinase FLT3 (FLT3, Homo sapiens, UniProt P36888, F691L/ITD)",58
"eIF-2-alpha kinase GCN2, C-terminal kinase domain (EIF2AK4, Homo sapiens, UniProt Q9P2K8, S808G)",91
"SRSF protein kinase 2 (SRPK2, Homo sapiens, UniProt P78362)",100
"Mast/stem cell growth factor receptor Kit (KIT, Homo sapiens, UniProt P10721, L576P)",100
"Protein kinase C eta type (PRKCH, Homo sapiens, UniProt P24723)",100
"Tyrosine-protein kinase Fes/Fps (FES, Homo sapiens, UniProt P07332)",100
"Fibroblast growth factor receptor 3 (FGFR3, Homo sapiens, UniProt P22607, G697C)",91
"Casein kinase I isoform epsilon (CSNK1E, Homo sapiens, UniProt P49674)",84
"Serine/threonine-protein kinase Nek3 (NEK3, Homo sapiens, UniProt P51956)",100
"Serine/threonine-protein kinase WNK2 (WNK2, Homo sapiens, UniProt Q9Y3S1)",75
"Ribosomal protein S6 kinase alpha-4, N-terminal kinase domain (RPS6KA4, Homo sapiens, UniProt O75676)",85
"Phosphatidylinositol 5-phosphate 4-kinase type-2 beta (PIP4K2B, Homo sapiens, UniProt P78356)",100
"Epidermal growth factor receptor (EGFR, Homo sapiens, UniProt P00533, G719C)",100
"Mitotic checkpoint serine/threonine-protein kinase BUB1 (BUB1, Homo sapiens, UniProt O43683)",85
"Ephrin type-B receptor 4 (EPHB4, Homo sapiens, UniProt P54760)",100
"Serine/threonine-protein kinase haspin (HASPIN, Homo sapiens, UniProt Q8TF76)",90
"Dual specificity mitogen-activated protein kinase kinase 7 (MAP2K7, Homo sapiens, UniProt O14733)",91
"Focal adhesion kinase 1 (PTK2, Homo sapiens, UniProt Q05397)",100
"STE20-like serine/threonine-protein kinase (SLK, Homo sapiens, UniProt Q9H2G2)",100
"Serine/threonine-protein kinase 17A (STK17A, Homo sapiens, UniProt Q9UEE5)",84

# Block 4
# Structure (SMILES): COc1cc(C(=O)N2CCC(N3CCN(C)CC3)CC2)ccc1Nc1ncc2c(n1)N(C)c1ccccc1C(=O)N2C
# Method: KINOMEscan
# Concentration: 10 µM
# Reading: lower = stronger binding
target,binding (% of control) [%]
ABL1(H396P)-nonphosphorylated,100
ABL1-phosphorylated,82
p38-delta,72
LOK,100
TEC,100
IKK-beta,89
ABL1(F317L)-nonphosphorylated,14
MLCK,100
p38-beta,60
AMPK-alpha1,51
QSK,100
